# Results pooled from the literature.
# Numbered parts are unrelated; each lists some results of a single study.

# Sample 1 — technique: RNA Bind-n-Seq; molecule type: RNA; sample: in vitro; tested at: 365 nM; baseline: no-protein control; reading: higher = stronger binding
# Target: RNA binding protein fox-1 homolog 2, RRM domain, GST-SBP tag (RBFOX2, Homo sapiens, UniProt O43251-10, residues 100-194)
# Setting: natural RNA segment, single round, ends assumed
# Constant ends, left off below: GGGAGUUCUACAGUCCGACGAUC … UGGAAUUCUCGGGUGCCAA
# Residues (chain): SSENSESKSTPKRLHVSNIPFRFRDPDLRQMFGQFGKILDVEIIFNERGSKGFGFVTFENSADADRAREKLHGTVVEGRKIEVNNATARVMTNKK
Strand,RBNS enrichment (R)
AAGGUGCUUGCAGUCACCUGAGGCCGUCCGUGUGGCCCAGGGCCCCAGCUGCCUUUAGGGCCCCCAUUGUUCAUAACAGCAUAUGCAUUUCCCCACCGCGUUGUGUCUGC,0.501
CUCAAGUAGAAAUUGCCCAAUUUUUACCAGCUGGAGGGACACCCUUGGGUUUUUGUACGAAGCUAUUUAAUGAGCCUGUGUCUUGGGGACUCAGCAGGCUGGAGCUUGGG,1.16
GCUUUUGCCAAGCCUCCCAUCCUGAGCUCUAAAUGGAAGGCCUUUCUAUGGGGUAGCUAAGUUUGGGAAGCCUAUGAACUGUGGGUCCUGCCAAGGUUCUCAAAGCACUU,0.26
CCAGUUAGAGCCCCUGGAAGUCCUCUUUCAGUUAGUGGCAAGCCACAUAUCCUGGAUCACAAAGCAAAGAAGAUGAACAGGUCCAGACACUGAGGCAAAUGGUACCUCAU,0.433
AGGGGCUCUGCUGAAGUGGCCUUCCACUGGAGUCUUGUUCUCAACAGUCCCUUGUGCCAGGUCAGCUAGCAUGGUGGCCUCCUGCAGAGGACUUGGUUUCUCAUCCACUU,0.814
AAACCACAAUUCAGGACCAAAUUUUUUCUCCGUGUGUGUUUAUUCCUUAUAGGUGUAAUUGAGAAGACCCGUUUAUUUUUACCCCCUCACGGACUCUCCAUCUUUGUAUU,0.574
GAUUGUGUUUGUGCCAUAUUUGUGCCAUUCUUUUAAGAACAAUGUUGCAACACAUUCAUUUGGAUAAGUUGUGAUUUGACGACUGAUUUAAAUAAAAUAUUUGCUUCACU,0.346
AGCAGCAUUGGCUGCUUUUGUUGGUAGCAUGGAUUCAUGUUUUCUCAGAGGAACUUUUCACUUGAAACUGUUGAUCUACUUGUCCAAAAGACCAGCUGCUGCGACACUAA,0.381

# Sample 2 — technique: competition protein-binding microarray; molecule type: double-stranded DNA, one strand shown; sample: in vitro; tested at: 2 µM; with: Pho4 competitor, 0.05 µM; reading: higher = stronger binding; constant ends, left off below: … GTCTTGATTCGCTTGACGCTGCTG
# Target: Centromere-binding protein 1, full length, His-tagged (CBF1, Saccharomyces cerevisiae, UniProt P17106, residues 1-351)
# UniProt P17106, sequence (whole entry, looked up): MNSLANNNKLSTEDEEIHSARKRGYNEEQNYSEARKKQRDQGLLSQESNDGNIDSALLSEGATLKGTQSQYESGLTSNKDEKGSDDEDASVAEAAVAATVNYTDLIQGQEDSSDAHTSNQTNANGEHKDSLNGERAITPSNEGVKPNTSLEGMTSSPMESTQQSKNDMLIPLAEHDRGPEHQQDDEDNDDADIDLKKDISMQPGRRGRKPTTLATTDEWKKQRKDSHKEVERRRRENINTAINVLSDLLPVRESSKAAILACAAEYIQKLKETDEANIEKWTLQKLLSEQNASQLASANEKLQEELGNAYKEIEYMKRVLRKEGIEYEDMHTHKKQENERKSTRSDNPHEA
# Setting: whole 60-bp probe, lowest competitor level
Strand,fluorescence intensity
AAATTACTAAGTTTTCACGTGCATTACCCCGTATGA,1400 a.u.
ACCAACCCAGGTACCGATGTGACGGTTTCCTCAGTC,79.1 a.u.
AAAGCGGTAATTTGCCACGTGGGTGCAGATATCTAT,1420 a.u.
CATACCCAACCTTGACAAGTGGGTGAAGATATTTGT,69.2 a.u.
TACAAGGTTATCCTGATCGTGCGGACAAGAAGATCA,56.5 a.u.
CGGGGTTAAGTTTGATGGGTGGGTGGCTTGCAGCAG,73 a.u.

# Sample 3 — technique: protein binding microarray; molecule type: double-stranded DNA, one strand shown; sample: in vitro; tested at: not given; baseline: not given; reading: higher = stronger binding
# Target: Histone acetyltransferase KAT6A, both winged helices, GST fusion (KAT6A, Homo sapiens, UniProt Q92794, residues 1-181)
# Setting: 8-mer, flanks averaged, mean of 2 arrays, mostly near background
# Target sequence (chain): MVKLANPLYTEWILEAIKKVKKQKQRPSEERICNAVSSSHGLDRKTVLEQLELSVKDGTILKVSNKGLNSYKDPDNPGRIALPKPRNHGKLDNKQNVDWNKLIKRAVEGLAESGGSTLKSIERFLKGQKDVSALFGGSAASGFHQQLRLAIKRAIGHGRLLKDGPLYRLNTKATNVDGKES
Strand,E-score
ATTTAATG,0.0323
ACGTTAGC,0.0935
ACGGGCAG,0.138
GACTGCGA,-0.0314
TACTACAA,0.0115
GCTTATAC,0.103
CACCGATC,0.0352

# Mixed results
Molecule,target,test,test system,conditions,how to read,measurement,value
"PhoQ, residues 284 288 289 292 302 303 ALASRC","PhoP, residues 12 14 15 18 19 SMASL (Escherichia coli, UniProt P23836)","Sort-seq, refers to: YFP reporter",E. coli,"PhoQ-PhoP variant library, with: 10 µM Mg2+","baseline: high Mg2+ state, higher = stronger signaling",fold induction,3.57

# Excerpt of the above (sample 2):
Strand,fluorescence intensity
ACCAACCCAGGTACCGATGTGACGGTTTCCTCAGTC,79.1 a.u.
